Results gathered from unrelated publications.
Each line is one published result; not all experiments were run side by side. Numbers after ± are the reported error.

| SMILES | test | system | setting | scale | endpoint | value |
| --- | --- | --- | --- | --- | --- | --- |
| O=C(O)CCCO |  | male Sprague-Dawley rat | intravenous, 600 mg/kg daily, day 5, chronic |  | respiratory frequency area below curve | 4470 breaths |
| CCCCCCC#Cc1cncc(-c2nnc(SCc3cc([N+](=O)[O-])cc([N+](=O)[O-])c3)n2C)c1 |  | human liver microsomes | microsomal stability |  | t1/2 | 3.9 min |
| C#Cc1ccc2c(c1)C(c1ccccn1)=NCc1c(-c3cnco3)ncn1-2.Cl |  | dichloromethane | 24 h, 25 °C, thermodynamic equilibrium |  | solubility | 711 µg/mL |
| C=C(C)[C@@H]1CCC(C)=C[C@H]1c1c(O)cc(CCCCC)cc1O |  | human | 750 mg, trial 17075, together with: fluconazole 400 mg |  | serious AEs | 0% |
| Cc1cc(=O)n(-c2ccccc2)n1C | ultracentrifugation | human, perfused placenta maternal effluent |  |  | unbound fraction | 0.97 |
| O=C1c2c(O)c(=O)ccn2N([C@@H]2c3ccccc3SCc3c2ccc(F)c3F)[C@@H]2COCCN12 |  | BALB/c mice, plasma | oral, 0.5 mg/kg baloxavir marboxil, 6 h |  | plasma concentration | 1.6 ng/mL |
| COc1cc2c(Oc3ccc4[nH]c(C)cc4c3F)ccnc2cc1OCC1(N)CC1 | measured: grade 1 or 2 influenza-like symptoms | paediatric high-risk refractory sarcoma | 8 mg |  | incidence of adverse event | 6.7% |
| OCc1ncc2n1-c1ccc(Cl)cc1C(c1ccccc1F)=NC2 |  | healthy volunteers, plasma | dose not given, together with: momelotinib multiple-dose | relative to: compound alone | Cmax decrease | 14% |
| Cc1ncc(OC[C@@]2(c3cccc(F)c3)C[C@H]2C(=O)Nc2ccc(F)cn2)c(C)n1 | population PK base model | human, plasma | oral |  | Q4/F | 25.4 L/h |
| COc1cc(C[C@@H](C)N)c(OC)cc1I.Cl |  | 1-octanol/phosphate buffer | pH 7.4 |  | distribution coefficient | 3.03 |
| CCCCCCC#Cc1cncc(-c2nnc(SCc3ccc([N+](=O)[O-])o3)n2C2CC2)c1 |  | mouse liver microsomes | microsomal stability |  | t1/2 | 2.5 min |
| C[C@H]1CN(C(=O)CC#N)[C@]12CCN(c1ncnc3[nH]ccc13)C2 |  | healthy human | oral, 6 mg single |  | subjects with influenza-like illness | 0% |
| C[C@]12CC[C@H]3[C@@H](CCC4=CC(=O)CC[C@@]43C)[C@@H]1CC[C@@H]2O |  | cryopreserved human hepatocytes | 1 µM |  | scaled intrinsic clearance | 385 mL/min/kg |
| COc1cccc(C2(O)CCCCC2CN(C)C)c1 (centres unmarked) | joint PK model | human, whole blood | oral, two-compartment metabolite model |  | intercompartmental clearance | 0.0509 L/h |
| CCCCOc1nc(N)c2c(n1)N(Cc1cccc(CN3CCCC3)c1)CC(=O)N2 |  | human | oral, 2 mg, grade 1 |  | nausea incidence | 6.7% |
| CN/C(=N\[N+](=O)[O-])NCc1cnc(Cl)s1 |  | soil | 28 days, nominal 3.3 |  | concentration | 2.1 mg/kg dry soil |
| C=C1C[C@H]2[C@@H]3CC[C@H](O[C@@H]4O[C@H](C(=O)O)[C@@H](O)[C@H](O)[C@H]4O)[C@@]3(C)CC[C@@H]2[C@@]2(C)C=CC(=O)C=C12 |  | postmenopausal women, serum | dose not given, UGT2B17 and GSTA1 genotypes |  | serum concentration | 59 nM |
| Cc1ncc2n1-c1ccc(Cl)cc1C(c1ccccc1F)=NC2 |  | healthy human volunteers, plasma | oral, dose not given, CYP3A probe substrate, together with: momelotinib | relative to: compound alone | AUC0-last ratio | 84.1% |
| Cc1ncc2n1-c1ccc(Cl)cc1C(c1ccccc1F)=NC2 |  | wild-type mice, plasma | intravenous, 0.3 mg/kg, together with: 3-day PCN 10 mg/kg |  | AUC(0-inf) | 0.042 ± 0.00322 µM·h |
| C=C1C[C@H]2[C@@H]3CC[C@H](O)[C@@]3(C)CC[C@@H]2[C@@]2(C)C=CC(=O)C=C12 |  | postmenopausal women, serum | dose not given, UGT2B17 and GSTA1 genotypes |  | serum concentration | 1.9 nM |
| CC(C)(C)[C@H](NC(=O)C(F)(F)F)C(=O)N1C[C@H]2[C@@H]([C@H]1C(=O)N[C@H](C#N)C[C@@H]1CCNC1=O)C2(C)C |  | hamster hepatocytes |  |  | scaled hepatic intrinsic clearance | 109 mL/min/kg |
| CCCCCCCCCCC(=O)O[C@H]1CC[C@H]2[C@H]3[C@H]([C@@H](C)C[C@]12C)[C@H]1CCC(=O)C=C1C[C@H]3C |  | human serum | 300 ng/mL, NaF 200 mg/mL |  | DMA level | not detected |
| Cc1ncc2n1-c1ccc(Cl)cc1C(c1ccccc1F)=NC2 |  | Sprague-Dawley rat, male |  |  | unbound intrinsic clearance | 4370 mL/min/kg |
| O=C(O)CCC(CP(=O)(O)O)C(=O)O (centres unmarked) |  | male Wistar rat, plasma | ip, 100 mg/kg |  | Tmax | 15 min |
| CCN(CC)C(=O)[C@@H]1C=C2c3cccc4[nH]cc(c34)C[C@H]2N(C)C1 | measured: abdominal pressure or fullness | healthy volunteers | dose not given, 0 to 12 h | relative to: placebo, direction not given | List of Complaints score | 0 |
| CCCCCCCCCCC(=O)O[C@H]1CC[C@H]2[C@@H]3CCC4=CC(=O)CC[C@]4(C)[C@H]3CC[C@]12C |  | human male serum | 500 ng/mL, NaF 0.00 mg/mL, baseline testosterone 544 ng/dL |  | testosterone level | 523 ng/dL |
| CCCCCn1cc(C(=O)Nc2cccc3ccccc23)c2ccccc21 |  | human liver microsomes | scaled to whole liver |  | scaled intrinsic clearance | 350 mL/min/kg |
| CCN1C[C@]2(COC)[C@H](O)C[C@H](OC)[C@@]34[C@@H]5C[C@@]6(O)[C@H](OC(=O)c7ccccc7)[C@@H]5[C@@](OC(C)=O)([C@@H]([C@H](OC)[C@H]23)[C@@H]14)[C@@H](O)[C@@H]6OC |  | Sprague-Dawley rat, plasma | oral, dose not given, in PCW extract |  | MRT(0-t) | 81.1 ± 2.88 min |
| CCCC(C(=O)c1ccc(O)c(OC)c1)N1CCCC1 (centres unmarked) |  | rat, plasma | subcutaneous, dose not given, after MDPV dosing, median |  | conjugated fraction | 98.2% |

Repeated from above:
| SMILES | test | system | setting | scale | endpoint | value |
| --- | --- | --- | --- | --- | --- | --- |
| Cc1ncc2n1-c1ccc(Cl)cc1C(c1ccccc1F)=NC2 |  | Sprague-Dawley rat, male |  |  | unbound intrinsic clearance | 4370 mL/min/kg |
| Cc1ncc2n1-c1ccc(Cl)cc1C(c1ccccc1F)=NC2 |  | wild-type mice, plasma | intravenous, 0.3 mg/kg, together with: 3-day PCN 10 mg/kg |  | AUC(0-inf) | 0.042 ± 0.00322 µM·h |
| O=C(O)CCCO |  | male Sprague-Dawley rat | intravenous, 600 mg/kg daily, day 5, chronic |  | respiratory frequency area below curve | 4470 breaths |
| O=C1c2c(O)c(=O)ccn2N([C@@H]2c3ccccc3SCc3c2ccc(F)c3F)[C@@H]2COCCN12 |  | BALB/c mice, plasma | oral, 0.5 mg/kg baloxavir marboxil, 6 h |  | plasma concentration | 1.6 ng/mL |
